Measured values from different studies.
Numbered parts are unrelated; each lists some results of a single study.

Set 1
Target: RNA binding protein fox-1 homolog 2, RRM domain, GST-SBP tag (RBFOX2, Homo sapiens, UniProt O43251-10, residues 100-194)
Method: RNA Bind-n-Seq
Molecule type: RNA
Sample: in vitro
Concentration: 365 nM
Notes: natural RNA segment, single round, ends assumed
Reference: no-protein control
Reading: higher = stronger binding
Measurement: RBNS enrichment (R)
Shared flanks, not repeated: GGGAGUUCUACAGUCCGACGAUC … UGGAAUUCUCGGGUGCCAA
Residues (chain): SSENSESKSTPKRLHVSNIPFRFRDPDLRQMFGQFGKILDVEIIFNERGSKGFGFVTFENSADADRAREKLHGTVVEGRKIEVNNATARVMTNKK
CAGAAGUUGAGGCCAAGGGAGAAUGGUAGGCACAGAAGAAACAUGGCAAACUGCUCUGUGCUUUCAAACCAAAGUGUUCCCCCCAACCCCAAAUUUGUCUAAGCACUGGC: 0.329
CUUUACCUAGGGGUAUGUUUUCUGCCCUGCUUCCCAGUCCUCAUGAUUAUCUUUAAUACCCUAGGCCUGGAUUGAGAGGCCUUCCUGUUCUAAGCCUACAAGUACUACUU: 0.34
AGUUUCCCAUUUCCCUUUCUUAGAUUGCACCAGUGAAGGAGAUGUUUUGCAAAGAUUCAGAGAACUAAUUUUUCACUGGAUAAGACCUGAGUAACCCAGACCCCCCACCG: 2.3
GUGAGAGUGUGCUCCCCCAAGGGAGGCUUCUCUCCAUCAGGAUGGUACUUUGGGGGAACAAAAUAGUCAGGGAUAUUGGUUCCCCUUUGAGGAGGUGCUGCUGUUUGCUU: 0.706
CUACAAAGAGAGAGGUGGCCCCCCUUUCUUGACCUCCUCCUCCUUCAAGCUCAAACACCACCUCCCUUAUUCAGGACCGGCACUUCUUAAUGUUUGUGGCUUUCUCUCCA: 0.545
UGUGCAUCCCCCACAAAAACAUGAGUGCCCCUCUGUGUGGCCUCUAACCCUCUGCACAGCCCUUCUGGGUGGUCCUCACCAGGUCUCUGAGCUGGGUGGGAGGCCAUCCU: 0.188
CUAGGAAGGUCUUAAGCAUGUAAUGUCCCUUUAUCAGAGGGAAGGGGACAAACUCAGGGCAGCCCUGUCCAGGUAGAAAUAUUUUUGCCCCCCUGUCUGAUGUUGAUGAG: 2.67
UAGAGGGAUGUGUGACGGAAUACAGUAUUAGGGUUCACCAUAGCAGACUCUGCGCUUUAUCUGUCUAUGGUGAAGGAUAGGGCGCAAUCACUUUAAUUGUAAUGAUAGAU: 0.438

Set 2
Target: Fragile X messenger ribonucleoprotein 1, C-terminal low-complexity region (Fmr1, Mus musculus, UniProt P35922)
Method: RNA Bind-n-Seq
Molecule type: RNA
Sample: in vitro
Concentration: 200 nM
Notes: whole 134-nt RNA, ends assumed
Added: 150 mM KCl
Reference: input library
Reading: higher = stronger binding
Measurement: log2 enrichment
Shared flanks, not repeated: GGGAGUUCUACAGUCCGACGAUC … UGGAAUUCUCGGGUGUCAAGG
CUCAAGUCCUGUGCUACACAUCGUAUGUACCGAAUCGGGGUGGGUGGGGUGGGGAAAGUAUUAUGUUACGCCGUUCGGAUCUGCACUUCC: 0.235
GUCCUGUGCUACACAUCGUAUGUACCGAAUCGGGGUUUUUGGGUUUUUGGGUUUUUGGGAAAGUAUUAUGUUACGCCGUUCGGAUCUGCA: 0.327
CACGGACAACACGCACCCACACAGACACAGAGGGAAGGGGUUGGGAUGGGGACAGGGUGCACAGCAGGGCGGGGUAGGACCCCAGCCCCU: 1.6
GCAGGAAGUAAAAACAAAUGGAAAUGCUGCGGAUAGUGGCAGGGGUGGGGGUUGCUAAGGAAAGGGUGGGAUGGGAGUGGGUAAAGAGUU: 0.28
UUCCUCAAGUCCUGUGCUACACAUCGUAUGUACCGAAUCGGCGGGCGGCGGAAAGUAUUAUGUUACGCCGUUCGGAUCUGCACUUCCAGC: 0.0223
GUCCUGUGCUACACAUCGUAUGUACCGAAUCGGGAAAGGGAAAAAGGGAAAAAAAGGGAAAGUAUUAUGUUACGCCGUUCGGAUCUGCAC: -0.507
CUCAAGUCCUGUGCUACACAUCGUAUGUACCGAAUCGGGGAGGAGGGGAGGGGAAAGUAUUAUGUUACGCCGUUCGGAUCUGCACUUCCA: 1.05
UCAAGUCCUGUGCUACACAUCGUAUGUACCGAAUCGGGGUUGGGUUGGGUUGGGAAAGUAUUAUGUUACGCCGUUCGGAUCUGCACUUCC: 1.34
AAGUCCUGUGCUACACAUCGUAUGUACCGAAUCAAACCCAAACCCCCAAAUUUAAAAAAGUAUUAUGUUACGCCGUUCGGAUCUGCACUU: -0.21

Set 3
Target: Hepatocyte nuclear factor 3-alpha (Foxa1, Mus musculus, UniProt P35582, residues 1-468, full length assumed)
Chain of UniProt P35582 (whole entry, looked up): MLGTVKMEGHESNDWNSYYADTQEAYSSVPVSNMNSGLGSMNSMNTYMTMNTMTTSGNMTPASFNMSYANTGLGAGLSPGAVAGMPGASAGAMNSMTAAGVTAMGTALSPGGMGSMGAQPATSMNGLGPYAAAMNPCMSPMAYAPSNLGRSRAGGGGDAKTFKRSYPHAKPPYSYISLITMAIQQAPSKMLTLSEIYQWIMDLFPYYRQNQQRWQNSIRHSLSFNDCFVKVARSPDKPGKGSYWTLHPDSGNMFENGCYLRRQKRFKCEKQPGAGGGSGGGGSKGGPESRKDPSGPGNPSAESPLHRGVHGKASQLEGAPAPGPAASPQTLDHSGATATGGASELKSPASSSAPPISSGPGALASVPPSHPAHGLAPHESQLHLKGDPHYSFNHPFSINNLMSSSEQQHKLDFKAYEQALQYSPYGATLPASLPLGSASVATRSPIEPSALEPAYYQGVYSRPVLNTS
Method: EMSA with sequencing
Molecule type: double-stranded DNA, one strand shown
Sample: in vitro
Concentration: 10 and 20 nM
Notes: whole designed probe, mean of two concentrations, ends assumed
Reference: negative control set to 0
Reading: higher = stronger binding
Measurement: normalised bound fraction
Shared flanks, not repeated: GTGAGCGGTGCCCATTGATGGGGAAC … TTTCACTGGGATCGTGGGGAC
GTGCAGCGCTCCTTCACAACACACACGTGAGCTGGGGCTGTAGCAGGTGGCCTGCCGACCAGCGTCTCCCCAACCCCCACAACATGCACTCAAAGTAAACAACAGCATTAGACAATTAGAAACCTACTTCCAGTCAACCTTACGCTCACTGAGGCCACTGCAGCACCGCCAGCCACGTCTCCAAAGCAGGCGA: 0.437 ratio
CTCATTCCTTGCTTCCGCCAATAATCTGACTAGTAAAGAAGTCACTGCATGCCACAAATTGTCAGTGCTGACTTGAGTGACTCAGAAGTTATTTATTTACTTATTTAATATATGAGTGTCACAGATGCAAATTCCATCTTGAGAATACCAACTCCTGATGCCAACTGATTGTCAGTCATGGCTACAACAGGAG: 0.439 ratio
TATTGACATTTGGTGGCATTCAAGATGTTATTTACACTCAGCATACTGAACGTCCGTGCAACTGTTTGCATTAGGTTCAAGCCTCAGGCTCTTTGTTTGCTGAGGTTCACCTAACGTAGTTTAGCCCCATAAAGATTCCTGAAAGAGGCTCTTTGAGCTAAAGCAACTCCATAGAAAGTCATGCATGTGCAGC: 0.44 ratio
ATTATTTATTGTAAAAGATGTCAGGAACTATAAAATACTTCAAACAGGTTTGTGAAAGGTCTTGACTTCAAGAAATATGACGAGTAAATGCATGTTTACATATTTTTTCTCCCCAAAAGCTATCAAAAGGAACCAAAAGTGAGAAAAAGATAAAAAAGAAAAAGAAAACATTAACTTTGAGCTTAAGAAATTG: 0.27 ratio
TCTTTCACTCAAGTGGTATATCCCACAGCCCTAAAGAAGCAAGGGAAATAAGAATTAGAACTAGACATCCCAGGAGACAAAGAATTCAACAAAGCAAACACACTTCCTGCTTAACCAATCCCTTCACTATTTACAGAAAATCTCTCTGGCTCAGGCCGGGCAGTGAGTTCATTTATTTCAACAAAATCAAAGA: 0.29 ratio

Set 4
Target: RING finger protein unkempt homolog, zinc fingers 1-6, GST-SBP tag (UNK, Homo sapiens, UniProt Q9C0B0, residues 30-357)
Chain of UniProt Q9C0B0 (30-357, looked up): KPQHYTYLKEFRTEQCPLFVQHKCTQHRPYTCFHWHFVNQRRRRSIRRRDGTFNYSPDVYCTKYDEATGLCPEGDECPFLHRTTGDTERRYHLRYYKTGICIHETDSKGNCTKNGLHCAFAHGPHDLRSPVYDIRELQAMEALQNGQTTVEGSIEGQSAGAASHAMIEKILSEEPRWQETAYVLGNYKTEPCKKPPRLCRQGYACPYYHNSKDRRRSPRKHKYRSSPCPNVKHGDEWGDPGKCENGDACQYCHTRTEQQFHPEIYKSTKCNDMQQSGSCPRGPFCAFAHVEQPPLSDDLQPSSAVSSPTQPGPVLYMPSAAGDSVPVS
Method: RNA Bind-n-Seq
Molecule type: RNA
Sample: in vitro
Concentration: not given
Notes: RNA with constant flanks, ends assumed
Reference: input RNA pool
Reading: higher = stronger binding
Measurement: bound/input enrichment
Shared flanks, not repeated: GGGAGUUCUACAGUCCGACGAUC … CAACAGAGGAUUGAGCAUCA
CAUUGUGGAAUUCCCUAGCAAUUUAUUUAGACUUAAUUUUUUAAAUUCAAGCUUACUGUAUCCGUCAUUUUUAGCCCAUAAUUAAAACAUGAUCACUUUUACACAGGUGUAGUAUGGUGC: 484 ratio
UGAAGUGGUUUUUGUGGGUGUGAAACAAAUGGUGAGAAUUUGAAUUGGUCCCUCUUAUUACCGUAUUGAAAUUAAGUCUACUUAAUUUAUCAAGUCAUGUUCAUGCCCUGAUUUUAUAUA: 0.398 ratio
GAACCACCUUCGAAUGAAACACCUUCCUCCACAGAAACAUCUGCUAUUCCUGAGGAGGAAACCGACUGGAUAGAGAAACAUUGUGUUAAGAUAAACAACGAUCUUCUAAUUUCCAAGGUC: 0.144 ratio
CGGGAAGCUGUAUGCAUUGUUCUUUCUGAUGACACGUGUUCUGAUGAGAAGAUUCGAAUGAACCGAGUUGUUCGGAAUAACCUCCGAGUUCGCCUAGGAGAUGUCAUCAGCAUCCAGCCA: 0.104 ratio
GACAUCCCACUGUUUCCAGUGCAGUCCAAGUACAUGGAUGUGGUCAAGGAGCGGAUCCGUCCCGCCCGACAGAUUGAAAAAGCUGAAUACCGGAACUUCCAGGCUUGUCUGCACAACUCA: 0.114 ratio
CUUUCUGUCCCCUCCUAUACAGUUUCCGUUUCUUUUUACACUUGCUUGCCCAGCCGUCUGCCGUACACCAGAUUCAGGUGUUUGCGCUGUGUAGAAUUUGUGUGCACAGAUACGUGCUUG: 0.299 ratio
CCCUCCCCGGGCCACCCACCCCUCCCGGCUCCCCGCCGAGAUCCAGGUUUCUUCUUAUUUCACCGCAAAUAAGAAAAAUGUUCUACGCACAUUUUGUCCUCAGUAAACGAGGGCCUCUGG: 1.74 ratio
UUAGUGGUGACUUCAUUGUGCAAAUCAUCUUCUCUGCCAGCUUCCCAGAACAAUCUGCGGCACCCGGUCCUACCUCCAGCCAAUGAAUGGGAUCAUUCUGGAUGUCACCAGCCCAAUAGG: 0.263 ratio

Excerpt of the above (set 2):
CUCAAGUCCUGUGCUACACAUCGUAUGUACCGAAUCGGGGAGGAGGGGAGGGGAAAGUAUUAUGUUACGCCGUUCGGAUCUGCACUUCCA: 1.05
UCAAGUCCUGUGCUACACAUCGUAUGUACCGAAUCGGGGUUGGGUUGGGUUGGGAAAGUAUUAUGUUACGCCGUUCGGAUCUGCACUUCC: 1.34
